Published values gathered from unrelated publications.
Lines come from different studies, so protocols differ. Values joined by “and” are separate records of one study, mostly repeats; a detail may differ. ± gives the spread as reported.

SMILES | target or system | test | test system | conditions | scale | quantity | result
Cc1cn([C@H]2C=C[C@@H](CO)O2)c(=O)[nH]c1=O | HIV-1 | viral replication | human immunodeficiency virus 1 | – | – | IC90 | 645 nM
CN(C)CCOc1cc(NC(=O)c2cc(Cl)cc(C(=O)Nc3cc(OCCN(C)C)c4ccccc4n3)n2)nc2ccccc12 | c-kit2 G-quadruplex DNA | FRET melting | – | 1 µM, pH 7.4, with: 60 mM potassium | – | ΔTm | 13.3 ± 0.4 K
N#Cc1ccn2c(-c3ccncc3)c(-c3ccc(F)cc3)nc2c1 | orf19.4575 kinase Candida albicans | MIB/MS competition binding | Candida albicans cell lysate | 100 nM | relative to: DMSO, lower = stronger binding | log2 fold change | -0.0811
O=C(NN=Cc1ccc(C[n+]2ccccc2)cc1)c1ccc2ccc3ccc(C(=O)NN=Cc4ccc(C[n+]5ccccc5)cc4)nc3c2n1.[Br-].[Br-] | human telomeric G-quadruplex DNA | UV melting | – | 3 µM, 100 mM potassium, with: DNA 3 µM | – | delta Tm | 0.7 °C
CN(C)CCCn1c(=O)c2cc(Br)c3c(=O)n(CCCN(C)C)c(=O)c4c5[nH]c6ccc([N+](=O)[O-])cc6[nH]c5c(c1=O)c2c34 | double-stranded DNA | FRET melting | – | 0.25 µM, K+ 100 mM | – | ΔTm | 1.1 ± 0.6 °C
N#Cc1ccc2c(-c3ccncc3)c(-c3ccc(F)cc3)nn2c1 | orf19.4575 kinase Candida albicans | MIB/MS competition binding | Candida albicans cell lysate | 10 µM | relative to: DMSO, lower = stronger binding | log2 fold change | -0.179
c1coc(-c2n[nH]cc2-c2ccnc3ccccc23)c1 | STE11 (Candida albicans) | kinase binding, MIB/MS competition | Candida albicans lysate | 1 µM | relative to: DMSO | log2 fold change | -0.15
Cc1n[nH]c2ccc(-c3cc(OC[C@@H](N)Cc4ccccc4)cnc3-c3ccoc3)cc12 | orf19.4575 kinase Candida albicans | MIB/MS competition binding | Candida albicans cell lysate | 10 µM | relative to: DMSO, lower = stronger binding | log2 fold change | -2.61
CC1CCCN1c1nccc(-c2cnn3ncccc23)n1 (stereo not shown) | human kinase panel | KINOMEscan | – | concentration not given | relative to: control | remaining binding | 87% and 69% and 100%
COc1cc(C(=O)Nc2cc(OCCN3CCCC3)c3ccccc3n2)nc(C(=O)Nc2cc(OCCN3CCCC3)c3ccccc3n2)c1 | human telomeric G-quadruplex DNA | FRET melting | – | 1 µM, pH 7.4, with: 60 mM potassium | – | ΔTm | 12.5 ± 1.1 K
C#Cc1cc(-c2cc(Nc3nc(N[C@@H](C)c4ccc(F)cn4)ncc3Cl)n[nH]2)ccc1C=O | NCOA4-RET kinase fusion, human | kinase activity, inhibitor | – | 0.2 µM | – | inhibition | 80.3% and 78.7%
F[C@@H]1CCN(c2nccc(-c3cnn4ncccc34)n2)C1 | human kinase panel | KINOMEscan | – | concentration not given | relative to: control | remaining binding | 100% and 82%
NCCCOc1cc(NC(=O)c2cc(OCCN)cc(C(=O)Nc3cc(OCCCN)c4ccccc4n3)n2)nc2ccccc12 | double-stranded DNA | FRET melting | – | 1 µM, pH 7.4, 60 mM potassium, with: oligonucleotide 200 nM | – | delta Tm | 0.9 ± 0.2 K
Cc1cc(C)c(Nc2ccnc(Nc3ccc(C#N)cc3)n2)c(C)c1 | HIV-1 | viral replication | human immunodeficiency virus 1 | – | – | IC90 | 38.5 nM
Nc1nc2c(nc(Br)n2[C@@H]2O[C@@H]3COP(=O)(O)O[C@H]3[C@H]2O)c(=O)[nH]1 | cone CNG channel | – | Morone saxatilis, cone outer segment | 15 µM in electrode, -35 mV | – | time constant of current decay | 32.7 ± 7.6 s
NC(=O)C1=CN([C@@H]2O[C@H](COP(=O)(O)OP(=O)(O)OC[C@H]3O[C@@H](n4cnc5c(N)ncnc54)[C@H](O)[C@@H]3O)[C@@H](O)[C@H]2O)C=CC1 | FSP1 F15A mutant | substrate | – | with: 100 µM co-substrate | – | kcat | 0.48 ± 0.02 s⁻¹

SMILES | target or system | test | test system | conditions | scale | quantity | result
CN(C)CCCOc1cc(NC(=O)c2cccc(C(=O)Nc3cc(OCCCN(C)C)c4ccccc4n3)n2)nc2ccccc12 | human telomeric G-quadruplex DNA | FRET melting | – | 1 µM, pH 7.4, with: 60 mM potassium | – | ΔTm | 30.7 ± 1.2 K
COc1ccccc1S(=O)(=O)Nc1ccc2c(c1)CN(C)C(=O)N2 | OCI-Ly1 | – | – | 0.1 µM, 120 h | – | viability | 183%
C[C@H](CCC(C)(C)O)[C@H]1CC[C@H]2[C@@H]3CC=C4C[C@@H](O)CC[C@]4(C)[C@H]3CC[C@]12C | NMDA receptor, rat | ion current, potentiator | rat hippocampal neurons | 2 µM, with: NMDA 1 mM | – | potentiation | 78.7 ± 8.83%
C#CCOc1cc(C(=O)Nc2cc(OCCN)c3ccccc3n2)nc(C(=O)Nc2cc(OCCN)c3ccccc3n2)c1 | double-stranded DNA | FRET melting | – | 1 µM, pH 7.4, 60 mM potassium, with: oligonucleotide 200 nM | – | delta Tm | 0 ± 0.1 K
CC(Nc1nc(N2CCCC2)nc2ccccc12)c1ccccc1 (stereo not shown) | importin α/β1 | cMyc nuclear import, high content imaging | HeLa Kyoto reporter | 3.17 µM, 2 h | – | cells with nuclear reporter | 89.7% and 99%
O=C(/C=C/c1ccc(CN(CCO)CCc2c[nH]c3ccccc23)cc1)NO | OCI-Ly1 | – | – | 1 µM, 120 h | – | viability | 0.487%
CCN1CCN(Cc2ccc(C(=O)Nc3cccc(CCc4cnc5[nH]ccc5c4OC)c3)cc2C(F)(F)F)CC1 | ABL/ARG kinases (human) | KiNativ profiling | Huh-7 cell lysate | 1.0 µM | – | inhibition | > 80%
O=C(c1ccc(F)cc1)N(Cc1ccccc1)C1CCCCC1 | sodium channel site 2 | binding | – | 10 µM | – | inhibition | 1%
C#CCOc1cc(C(=O)Nc2cc(OCCCN)c3ccccc3n2)nc(C(=O)Nc2cc(OCCCN)c3ccccc3n2)c1 | c-kit2 G-quadruplex DNA | FRET melting | – | 1 µM, pH 7.4, with: 60 mM potassium | – | ΔTm | 9.6 ± 0.4 K
Oc1ccccc1-c1n[nH]cc1-c1ccnc2ccccc12 | IKS1 (Candida albicans) | kinase binding, MIB/MS competition | Candida albicans lysate | 1 µM | relative to: DMSO | log2 fold change | 0.11
CN(C)CCCn1c(=O)c2cc(Br)c3c(=O)n(CCCN(C)C)c(=O)c4c5[nH]c6ccc(C(=O)O)cc6[nH]c5c(c1=O)c2c34 | double-stranded DNA | FRET melting | – | 0.25 µM, K+ 100 mM | – | ΔTm | 1.5 ± 0.1 °C
NCCOc1cc(C(=O)Nc2cc(OCCN3CCCC3)c3ccccc3n2)nc(C(=O)Nc2cc(OCCN3CCCC3)c3ccccc3n2)c1 | c-kit2 G-quadruplex DNA | FRET melting | – | 1 µM, pH 7.4, with: 60 mM potassium | – | ΔTm | 16 ± 0.5 K
Nc1ccn([C@H]2CC[C@@H](CO)O2)c(=O)n1 | HIV-1 | viral replication | human immunodeficiency virus 1 | – | – | IC90 | 939 nM
NCCOc1cc(C(=O)Nc2cc(OCCN)c3ccccc3n2)nc(C(=O)Nc2cc(OCCN)c3ccccc3n2)c1 | human telomeric G-quadruplex DNA | FRET melting | – | 1 µM, pH 7.4, with: 60 mM potassium | – | ΔTm | 34.8 ± 0.6 K
CSCC[C@H](NC(C)=O)C(=O)O | porcine kidney aminoacylase 1 | substrate | – | without Co2+ | – | kcat | ~20 s⁻¹
